Measurements gathered from unrelated publications.
CSF1R: Macrophage colony-stimulating factor 1 receptor (CSF1R, Homo sapiens, UniProt P07333)
Sequence of UniProt P07333 (whole entry, unmodified, looked up): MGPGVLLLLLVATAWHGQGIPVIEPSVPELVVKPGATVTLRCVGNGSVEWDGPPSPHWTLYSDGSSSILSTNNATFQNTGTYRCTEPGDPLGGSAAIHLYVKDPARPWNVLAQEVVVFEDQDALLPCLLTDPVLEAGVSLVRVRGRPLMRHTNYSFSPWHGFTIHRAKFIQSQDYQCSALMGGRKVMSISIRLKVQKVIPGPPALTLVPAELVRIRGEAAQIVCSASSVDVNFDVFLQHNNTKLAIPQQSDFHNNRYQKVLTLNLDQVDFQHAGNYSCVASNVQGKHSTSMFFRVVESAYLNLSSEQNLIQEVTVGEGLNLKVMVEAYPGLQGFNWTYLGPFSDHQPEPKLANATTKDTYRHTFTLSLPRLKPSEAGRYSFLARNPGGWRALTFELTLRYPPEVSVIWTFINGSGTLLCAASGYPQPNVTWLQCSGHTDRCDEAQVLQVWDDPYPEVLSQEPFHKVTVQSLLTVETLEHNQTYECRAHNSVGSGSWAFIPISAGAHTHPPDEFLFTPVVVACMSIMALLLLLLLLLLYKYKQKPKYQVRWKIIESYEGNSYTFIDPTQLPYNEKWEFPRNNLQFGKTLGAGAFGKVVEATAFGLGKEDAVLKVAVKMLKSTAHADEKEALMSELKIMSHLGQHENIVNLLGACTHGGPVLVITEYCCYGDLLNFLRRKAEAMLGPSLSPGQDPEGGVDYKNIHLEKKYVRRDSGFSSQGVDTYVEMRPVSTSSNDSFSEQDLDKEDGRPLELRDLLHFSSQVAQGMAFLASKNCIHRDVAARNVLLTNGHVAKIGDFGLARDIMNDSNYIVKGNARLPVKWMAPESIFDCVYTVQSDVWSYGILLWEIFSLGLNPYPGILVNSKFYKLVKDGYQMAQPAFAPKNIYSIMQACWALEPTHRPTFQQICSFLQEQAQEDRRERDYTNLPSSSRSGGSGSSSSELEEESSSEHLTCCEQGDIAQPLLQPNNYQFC

Compound	target	assay	setting	how to read	quantity	result
CC(C)[C@H]1NC(=O)C[C@H]2/C=C/CCSSC[C@@H](NC1=O)C(=O)N[C@H](Cc1cccc3ccccc13)C(=O)NCC(=O)O2	CSF1R	enzyme activity, inhibitor	10 µM		inhibition	-51.6%
CCOC(=O)[C@@H]1Cc2c(cc([N+](=O)[O-])cc2[N+](=O)[O-])[C@H](O)[C@]12C(=O)Nc1ccc(Br)cc12	CSF1R	binding, competition with immobilised ligand	0.1 µM		remaining binding	92%
CS(C)(=O)=Nc1ccc(-c2ccc(-c3nc4cc(O[C@@H]5CO[C@H]6[C@@H]5OC[C@H]6O)[nH]c4cc3F)cc2)cc1	CSF1R (Homo sapiens, UniProt P07333, Y969C)	enzyme activity, inhibitor	10 µM		inhibition	2%
CCn1nc(Cl)c2c1-c1cnc(N)c(c1)O[C@H](C)c1cc(F)ccc1-c1nn(C)cc1C2	CSF1R	kinase activity, inhibitor		baseline: IC50 CSF1R over IC50 ALK	selectivity ratio	162 fold
O=C(O)c1ccccc1/C=N/Nc1nc(-c2ccccc2Cl)cs1	CSF1R	enzyme activity, inhibitor	1 µM		inhibition	-5.81%
C[C@H](NCc1ccc(-c2ccc(C(F)(F)F)cc2)cc1)C(N)=O	CSF1R	cell-free assay, competition with immobilised ligand	1 µM		inhibition	1%
O=C1NC(=O)c2c1c1cc(F)c[n+]3c1c1c2c2cc(O)ccc2[n]1[Ru-4]312([N]=C=S)[S+]3CC[S+]1CC[S+]2CC3 (centres unmarked)	CSF1R	enzyme activity	100 nM, human enzyme, added: 10 µM ATP	baseline: untreated	remaining activity	27%
Nc1ccc(/C=C/C(=O)N2CCc3c(oc4c(-c5ccc(F)cc5)cc(-c5ccc(C(=O)N6CCC(F)(F)CC6)cn5)cc34)C2)cn1	CSF1R	binding, competition with immobilised ligand	1 µM		remaining binding	100%

A few entries again:
Compound	target	assay	setting	how to read	quantity	result
CCOC(=O)[C@@H]1Cc2c(cc([N+](=O)[O-])cc2[N+](=O)[O-])[C@H](O)[C@]12C(=O)Nc1ccc(Br)cc12	CSF1R	binding, competition with immobilised ligand	0.1 µM		remaining binding	92%
